Assay results of several laboratories.
Each line is one published result; not all experiments were run side by side. Values joined by “and” are separate records of one study, mostly repeats; a detail may differ. ± marks the error that the study gave.

With Nc1ncc(-c2cc(-c3cnn(CC(F)(F)F)c3)ncc2F)nc1C(=O)NC1CNCC(F)C1 (stereo not drawn) the remaining binding was 80% (FGFR2; KINOMEscan; 1 µM; reference: DMSO control).
Fc1ccc(Nc2nc(NC3CCCCC3)c3ccccc3n2)cc1F gave a pIC50 of 5.8 (β2AR/β1AR TM2 chimera; β-arrestin2 recruitment, antagonist, BRET; added: isoprenaline 1 µM).
The ΔTm of CN1CCCNC(=O)CCC(=O)NCCCN(C)CCCNc2cccc3c2C(=O)c2cccc(c2C3=O)NCCC1 is reported as less than 0.5 °C (telomeric G-quadruplex DNA; DNA thermal stabilisation, CD melting; concentration not given, pH 7.4, added: 100 mM NaCl).
Under protein binding, O=S(=O)(NCc1ccncc1)c1ccc(C2CCCCC2)cc1 is recorded as “no effect” (IRF8 (human); biotin probe pulldown, item: IRF8; 500 µM; reference: DMSO).
The ΔTm of CN1CCCNC(=O)c2cccc(c2)C(=O)NCCCN(C)CCCNc2cccc3c2C(=O)c2cccc(c2C3=O)NCCC1 is reported as 8.8 ± 0.6 °C (telomeric G-quadruplex DNA; DNA thermal stabilisation, CD melting; concentration not given, pH 7.4, added: 100 mM KCl).
CC(C)=CCC/C(C)=C/CC/C(C)=C/Cc1c(O)cc(CO)c(C=O)c1O has a Vmax of 1.74 nmol/min/mg (StaI (Stachybotrys chartarum); substrate; 30 min, pH 7.0, 45 °C).
For C=CC(=O)Nc1cccc(Cn2ncc3cnc(Nc4cnn(CCOC)c4)nc32)c1, the binding was 99% (human PRKR; KINOMEscan; 100 nM; reference: control).
The translation activity of CC(=O)n1cc([C@H]2C=C(C(=O)N3CCN(Cc4ccc5c(c4)OCO5)CC3)O[C@@H](OCc3ccc(CO)cc3)C2)c2ccccc21 is reported as 56.7% (Trypanosoma cruzi; reporter mRNA translation, inhibitor, item: Renilla luciferase mRNA; cell-free extract; concentration not given, test 2; reference: positive over negative control).
O=C(NCc1ccc2c(c1)CN(C(=O)c1cc(-c3ccccc3)no1)C2)C1C=CC=CC=C1 gave an IC50 of 490 ± 30 nM (FSP1 L323A; resorufin formation, inhibitor, resazurin; pH 7.2, added: 50 µM resazurin, 100 µM NADH).
C=CC(=O)N1[C@@H](c2ccc3c(c2)OCO3)c2[nH]c3ccccc3c2C[C@H]1C(=O)N1CCN(C)CC1: “log2 fold change” -0.23 (CCNE1 WT-3xFLAG:CDK2 complex; co-IP TMT proteomics, item: SAMHD1; HEK-293T; 20 µM, 6 h; reference: DMSO).
C1=[N+]2CCCC[N+]3=Cc4ccc5[n]4[Au-]23[n]2c1ccc2-c1nc2ccccc2nc1-5.F[P-](F)(F)(F)(F)F has a melting temperature of 83.8 °C (human ACTN3 291-bp linear dsDNA; high-resolution melt; 2.08 µM).
The IC50 of CC[C@H]1OC(=O)[C@H](C)[C@@H](OC(=O)Cc2c(F)cc([N+](=O)[O-])cc2F)[C@H](C)[C@@H](O[C@@H]2O[C@H](C)C[C@H](N(C)C)[C@H]2O)[C@](C)(OC)C[C@@H](C)C(=O)[C@H](C)[C@@H](O)[C@]1(C)O is reported as 140 nM (Escherichia coli ribosome; in vitro transcription-translation, inhibitor).
With CC1(C)C[N+]2=Cc3ccc4[n]3[Au-]23[n]2c(ccc2-c2nc5ccccc5nc2-4)C=[N+]3C1.F[P-](F)(F)(F)(F)F the melting temperature was 86.8 °C (human ACTN3 291-bp linear dsDNA; high-resolution melt; 50.5 µM).
The IC50 of CC[C@H]1OC(=O)[C@H](C)[C@@H](OC(=O)Cc2ccc(OC(F)(F)F)cc2)[C@H](C)[C@@H](O[C@@H]2O[C@H](C)C[C@H](N(C)C)[C@H]2O)[C@](C)(OC)C[C@@H](C)C(=O)[C@H](C)[C@@H](O)[C@]1(C)O is reported as 3400 nM (Escherichia coli ribosome; in vitro transcription-translation, inhibitor).
The ΔTm of O=C(Nc1cc(OCCN2CCCC2)c2ccccc2n1)c1cccc(C(=O)Nc2cc(OCCN3CCCC3)c3ccccc3n2)n1 is reported as 26.2 ± 0.9 K (c-kit1 G-quadruplex DNA; FRET melting; 1 µM, pH 7.4, added: 60 mM potassium).
Cc1sc2ncn(CC(=O)N3CCCC3)c(=O)c2c1-c1ccc(Cl)cc1 has an ion current of 103 ± 1.7% (rat GluN1/GluN2A chimera with GluN2D M2, M3 and S2; two-electrode voltage clamp; Xenopus oocytes; 50 µM; reference: vehicle).
Fc1ccc(Nc2nc(NC3CCCCC3)c3cc(C(F)(F)F)ccc3n2)cc1F gave a maximal inhibition of -5% (β2AR/β1AR ECL1/3 chimera; β-arrestin2 recruitment, antagonist, BRET; reference: isoprenaline maximal response).
C[C@@H]1CN(c2cc(=O)n(C)c3ccc(C#N)nc23)[C@@H](C)CN1Cc1ccc(S(=O)(=O)n2cnc(C3CC3)n2)cc1: protein abundance “no effect” (about 280 kinases including DGKζ; DIA global proteomics; Jurkat; 5 µM, 6 h).
For c1ccc(-c2n[nH]cc2-c2ccnc3ccccc23)nc1, “log2 fold change” read -0.08 (YPK1 (Candida albicans); kinase binding, MIB/MS competition; Candida albicans lysate; 1 µM; reference: DMSO).
With CC[C@H]1OC(=O)[C@H](C)[C@@H](OC(=O)Cc2ccccc2Cl)[C@H](C)[C@@H](O[C@@H]2O[C@H](C)C[C@H](N(C)C)[C@H]2O)[C@](C)(OC)C[C@@H](C)C(=O)[C@H](C)[C@@H](O)[C@]1(C)O the IC50 was 230 nM (Escherichia coli ribosome; in vitro transcription-translation, inhibitor).
Cc1[nH]nc2c1N=C(c1ccccc1Cl)c1cnc(N3CCOCC3)cc1N2 gave an inhibition of 18% (imidazoline I2 receptor, rat; radioligand binding; brain; 10 µM).
For CC[C@H]1OC(=O)[C@H](C)[C@@H](OC(=O)Cc2ccc(OC)cc2)[C@H](C)[C@@H](O[C@@H]2O[C@H](C)C[C@H](N(C)C)[C@H]2O)[C@](C)(OC)C[C@@H](C)C(=O)[C@H](C)[C@@H](O)[C@]1(C)O, the IC50 was 230 nM (Escherichia coli ribosome; in vitro transcription-translation, inhibitor).
With C1=NCCCN=Cc2ccc([nH]2)-c2nc3ccccc3nc2-c2ccc1[nH]2 the melting temperature was 83 °C (human ACTN3 291-bp linear dsDNA; high-resolution melt; 26.5 µM).
Fc1ccc(Nc2nc(NC3CCCCC3)c3cc(Br)ccc3n2)cc1F gave a pIC50 of 6.6 (β2AR/β1AR ECL1/3 chimera; β-arrestin2 recruitment, antagonist, BRET; added: isoprenaline 1 µM).
For C1=[N+]2CCC[N+]3=Cc4ccc5[n]4[Au-]23[n]2c1ccc2-c1nc2ccccc2nc1-5.F[P-](F)(F)(F)(F)F, the melting temperature was 85.8 °C (human ACTN3 291-bp linear dsDNA; high-resolution melt; 10.2 µM).
For CC[C@H]1OC(=O)[C@H](C)[C@@H](O)[C@H](C)[C@@H](O[C@@H]2O[C@H](C)C[C@H](N(C)C)[C@H]2OC(C)=O)[C@](C)(OC)C[C@@H](C)C(=O)[C@H](C)[C@@H](O)[C@]1(C)O, the IC50 was 7100 nM (Escherichia coli ribosome; in vitro transcription-translation, inhibitor).
For Clc1ccc(Cn2cc(-c3ccccc3)[n+]3c2CCC3)cc1Cl.[Cl-], the translation activity was 128% and 109% (Trypanosoma cruzi; reporter mRNA translation, inhibitor, item: Renilla luciferase mRNA; cell-free extract; concentration not given, test 1; reference: positive over negative control).
CC(C)(C)c1cc([N+](=O)[O-])c(NCCNC(=O)CCC(=O)O)c([N+](=O)[O-])c1 has an IC50 of 0.385 ng/mL (anti-BL mouse monoclonal antibody; binding, indirect competitive ELISA; pH 7.4, 1% methanol).
With NCCOc1cc(NC(=O)c2cc(OCc3cn(Cc4ccc(C(=O)O)cc4)nn3)cc(C(=O)Nc3cc(OCCN)c4ccccc4n3)n2)nc2ccccc12 the ΔTm was 15.5 ± 0.5 K (c-kit1 G-quadruplex DNA; FRET melting; 1 µM, pH 7.4, added: 60 mM potassium).
With CC(=O)NCCCN(C)CCCNc1cccc2c1C(=O)c1cccc(NCCCN(C)CCCNC(C)=O)c1C2=O the ΔTm was less than 0.5 °C (telomeric G-quadruplex DNA; DNA thermal stabilisation, CD melting; concentration not given, pH 7.4, added: 100 mM KCl).

Repeated from above:
The IC50 of CC[C@H]1OC(=O)[C@H](C)[C@@H](OC(=O)Cc2c(F)cc([N+](=O)[O-])cc2F)[C@H](C)[C@@H](O[C@@H]2O[C@H](C)C[C@H](N(C)C)[C@H]2O)[C@](C)(OC)C[C@@H](C)C(=O)[C@H](C)[C@@H](O)[C@]1(C)O is reported as 140 nM (Escherichia coli ribosome; in vitro transcription-translation, inhibitor).
The ΔTm of O=C(Nc1cc(OCCN2CCCC2)c2ccccc2n1)c1cccc(C(=O)Nc2cc(OCCN3CCCC3)c3ccccc3n2)n1 is reported as 26.2 ± 0.9 K (c-kit1 G-quadruplex DNA; FRET melting; 1 µM, pH 7.4, added: 60 mM potassium).
